Experimental data collected from several papers.
Parts stem from different laboratories: compare values within a part only. Changes are numbered by the printed parent chain.

Series 1
Target: CCNF, cyclin fold, Cln2 fusion (human)
Method: yeast growth competition, sequencing
Medium: yeast
Setting: strong parent motif
Baseline: not given
Direction: higher = stronger binding
Parent: CUX1 docking peptide (human); SRIRRELFIEEIQ
Change | normalised enrichment score
E6A | 7.33
F8A | 0.915
F8L | 1.46
I12A | 4.68
I3A | 7.7
S1A | 5.2
L7A | 0.533

Series 2
Target: Interferon regulatory factor 5, full length, phosphomimetic (IRF5, Homo sapiens, UniProt Q13568-2, residues 1-514, K96S/S451D/S453D/S456D/S462D)
Method: protein-binding microarray
Molecule type: double-stranded DNA, one strand shown
Medium: in vitro
Tested at: 250 nM
Setting: 60-bp whole probe
Together with: salmon DNA 0.4 mg/ml
Baseline: random background probes
Direction: higher = stronger binding
Constant ends, left off below: GCCTAGCAC … GTCTTGATTCGCTTGACGCTGCTG
Sequence | log fluorescence [z-score]
TTAGACCTGAGTTTCGATTAGTGCTAG | 9.31
GACGAACTGAGACTGGGGACGTGCTAG | -0.154
TAAGGTCTCCTTCTCCTTTAGTGCTAG | 0.0635
TCCAACCTGCTGAATCAAAAGTGCTAG | 0.22
TTAGGTATCGACTTCCGGTTAGTGCTA | 4.25
GACGATTTCAGTCTCGAGAAGTGCTAG | 1.59
TTTGGTTTCCTTTTCCTTTAGTGCTAG | 2.7
TTAGGCATCGGTTTCGGTTAGTGCTAG | 8.54
TTAGATCTCGGGACTGGATTAGTGCTA | -0.232
GACGGACTCCTACTGCTGACGTGCTAG | -0.494
GACGTTATCGACTATCGGGACGTGCTA | 3.83
GACGATATCAGTATCGAGAGGTGCTAG | 3.49
CTAGATTTCAGTATCGATTAGTGCTAG | 8.35
TCAGCTTTCCTTCTTGAACTGTGCTAG | 1.02
GACGGTTTCGGCTCCGGGACGTGCTAG | 5.66
GCAAATATATCAGTGAATTTGTGCTAG | 0.74
GACCATCTCAGACTGGAGACGTGCTAG | -0.671
GACGGTTTCGACACTTGGGACGTGCTA | 4.13
GTCGGTATCGGTATCGGGACGTGCTAG | 7.6
GACGAACCGGGGTATCGAGACGTGCTA | 0.273

Series 3
Target: NFE2L3, bZIP domain (human)
Method: DHFR protein complementation
Medium: yeast
Setting: single substitutions, most at no-binding floor
Baseline: wild-type JUN-FOS pair
Direction: higher = stronger binding
Parent: JUN, bZIP domain (human); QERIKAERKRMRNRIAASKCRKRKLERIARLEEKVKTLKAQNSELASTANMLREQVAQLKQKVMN; partner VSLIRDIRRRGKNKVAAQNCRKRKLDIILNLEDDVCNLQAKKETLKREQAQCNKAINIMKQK
Change | binding fitness
T37V | -1.5 natural log
E32R | -1.36 natural log
E32L | -1.4 natural log
L45H | -1.52 natural log
Q55S | -1.32 natural log
E33T | -1.48 natural log
L45I | -1.51 natural log
M51S | -1.33 natural log
Q41G | -1.5 natural log
A46S | -1.44 natural log
E44N | -1.45 natural log
T48K | -1.36 natural log
A40R | -1.34 natural log
V56N | -1.55 natural log

Series 4
Target: RING finger protein unkempt homolog, zinc fingers 1-6, GST-SBP tag (UNK, Homo sapiens, UniProt Q9C0B0, residues 30-357)
Method: RNA Bind-n-Seq
Molecule type: RNA
Medium: in vitro
Tested at: not given
Setting: RNA with constant flanks, human-mouse chimeric sites, ends assumed
Baseline: input RNA pool
Direction: higher = stronger binding
Target sequence (chain): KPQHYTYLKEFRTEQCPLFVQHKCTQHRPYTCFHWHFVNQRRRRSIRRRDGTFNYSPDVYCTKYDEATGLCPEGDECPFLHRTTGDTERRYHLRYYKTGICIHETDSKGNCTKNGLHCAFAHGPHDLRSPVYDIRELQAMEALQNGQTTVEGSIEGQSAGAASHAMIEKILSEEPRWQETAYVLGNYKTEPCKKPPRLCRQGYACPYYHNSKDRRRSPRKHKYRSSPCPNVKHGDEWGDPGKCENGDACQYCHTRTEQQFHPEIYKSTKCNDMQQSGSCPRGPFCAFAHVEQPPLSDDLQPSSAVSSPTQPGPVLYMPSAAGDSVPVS
Sequence | bound/input enrichment
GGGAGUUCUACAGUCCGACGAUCAUGGAACAUUUCGAUGCGUCACUCAGUACCUAUUUCAAGGCCUUCCUGGGCCCCCGAGAUACAAGAGUAAAAGGAUGGUUCCUCCUGGACAAUUACAUCCCUACGUUUGUCUGUUCUGUUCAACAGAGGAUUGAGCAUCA | 0.0825 ratio
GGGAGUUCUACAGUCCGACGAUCCUCAUGGCUGCAGAAACAGGAAGUGGCAAAACUGGUGCAUUUAGUAUUCCCGUUAUCCAGAUAGUGUAUGAAACUCUGAAAGACCAACAGGAAGGAAAAAAAGGAAAAACAACUAUUAAACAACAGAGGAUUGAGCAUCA | 0.93 ratio
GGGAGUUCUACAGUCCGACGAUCCCCCAAUACCAUUUGCAGGUCUGGAACUGCACUCUCUUUUUUAAAAAAUAUGCAUAUAUUUUAGGGCUGUAGAUUUAUUUUCCUGGUUUCUUUUCCAAUUGCUGACUUUUGAGCACAGAACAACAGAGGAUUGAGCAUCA | 1.47 ratio
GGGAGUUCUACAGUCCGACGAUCACACAAUAUGAGACCAACAGCAUGGACUUCAAAGUUGGGGCAGAUGGGACAGUCUUCGCCACCCGGGAGCUGCAGGUCCCCUCCGAGCAGGUGGCGUUUACCGUCACUGCGCGGGAAAGCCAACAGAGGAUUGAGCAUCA | 0.188 ratio
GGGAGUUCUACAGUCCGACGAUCGCUCCUCCCCGCUCUGCAGCCUGGGGACACUGGGCUGGGACCAGAAUCCAGCUUUCUUUUAAAACUCUAUAUUUUUUUGUAUCCCGUGACAUUUCAUUUUUUUUAAAAGAAAAAAACUUUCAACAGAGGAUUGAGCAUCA | 0.466 ratio
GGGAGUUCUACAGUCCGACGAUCUCAGUCUUUUUGUACAGCUUUGUAAAUUCUUAACAUUUUUAUAUUGCCAUGUUUAUUUUGUUUGGGUAAUUUGGUUCAUUAAGUACAUAGCUAAGGUAAUGAACAUCUUUUUCAGUAAUUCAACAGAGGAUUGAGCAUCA | 1.06 ratio
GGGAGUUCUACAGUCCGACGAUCUACUCAACUUUCUUGCCACAUUUUGAAUUCCAAGACAUUAUUCCUCCAGAUGACUUUCUAACGAGUGAUGAAGAGCAAGAUUUGGUUUUAUUUGGAAGUUUGAGAGGACAAGUUGUUGGACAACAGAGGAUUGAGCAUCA | 0.175 ratio
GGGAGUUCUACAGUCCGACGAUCGACUUGGGACCGUCCUGGGCUAGUACAAAUAGCGGCAGUGGAGGCUCGAGAGGAAAGUUUGUUAGUGGAGGCAGUGGUAGAGGCCGUCAUGUACGGUCCUUUACUCGAUAGAUGUGUUCUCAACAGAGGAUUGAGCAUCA | 0.62 ratio
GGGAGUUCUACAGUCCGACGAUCGCGGCAGAAUCAUGGAGGACAUGAUGGAGCUCCCCAAAGCGCGCGUCAACGCCAGCAUGUUACCACAGUAUAUCGACCGGCCCGUGUGCUUCGUGGGGAGGCUGGAAAAGAUUCAUCCCACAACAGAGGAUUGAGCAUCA | 0.169 ratio
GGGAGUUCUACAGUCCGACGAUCGCUGAAAAUGAAGAAGAGGCAGCUGAUGUCUGGUACAACCUGGGGCACAUAGCUGUGGGAAUAGGAGAUACAAACUUGGCCCACCAAUGCUUCAGGCUGGCCCUGGUCAACAACAACCACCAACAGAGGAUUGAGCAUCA | 0.283 ratio
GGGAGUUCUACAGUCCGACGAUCGUUGCCAGCUUCCGGUUCCGUUGGGCUCGGUUCUCUCAGUGCUACGUUGUCUCUACGCUCUCAAUCCGCCAUCCAACGGCAGUCAUGCAGGUAAUGCAGUUUGUGGAGCCCAGCCGGCAGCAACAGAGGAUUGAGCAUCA | 0.109 ratio

Series 5
Target: ABI1, truncated, D143A, DHFR fusion (Arabidopsis thaliana)
Method: DHFR PCA, deep sequencing
Medium: yeast
Setting: methotrexate growth selection, single substitutions
Together with: (+)-ABA 0 µM
Baseline: wild-type fitted maximum
Direction: higher = stronger binding
Parent: PYL1, truncated, DHFR fusion (Arabidopsis thaliana); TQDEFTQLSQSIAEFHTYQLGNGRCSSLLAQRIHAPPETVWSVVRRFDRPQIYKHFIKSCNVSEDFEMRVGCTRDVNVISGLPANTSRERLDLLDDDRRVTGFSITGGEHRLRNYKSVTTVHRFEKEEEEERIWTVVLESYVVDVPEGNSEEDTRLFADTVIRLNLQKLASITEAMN; partner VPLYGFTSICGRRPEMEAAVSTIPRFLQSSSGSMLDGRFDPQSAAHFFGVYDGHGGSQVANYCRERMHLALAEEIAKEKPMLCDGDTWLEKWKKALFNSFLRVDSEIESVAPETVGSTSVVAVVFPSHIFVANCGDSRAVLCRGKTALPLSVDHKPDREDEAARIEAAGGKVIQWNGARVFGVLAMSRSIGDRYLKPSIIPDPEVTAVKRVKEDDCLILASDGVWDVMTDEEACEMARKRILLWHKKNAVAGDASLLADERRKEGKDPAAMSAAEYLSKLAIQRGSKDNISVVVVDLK
Change | relative binding score
L156E | 1.15%
L112F | 9.04%
L28E | 1.34%
M68G | -1.97%
P146W | -2.13%
T154N | -12%
E67Y | -3.54%
L164S | 9.23%
D97T | 26.2%
H122D | -1.11%
A30Q | 6.57%
P37K | -0.379%
T1H | 22.4%
E147R | 1.24%
G148R | -0.702%
Q19T | 38.2%
L29Y | -1.61%
V142W | -8.7%
V145C | -12.4%
Q10M | 5.13%
V70K | 9.61%

Excerpt of the above (series 5):
Change | relative binding score
V145C | -12.4%
T154N | -12%
V70K | 9.61%
L156E | 1.15%
